Experimental data pooled from the literature.
Protocols differ between the studies behind these lines.
TMPRSS2: Transmembrane protease serine 2 (TMPRSS2, Homo sapiens, UniProt O15393)
UniProt O15393, sequence (whole entry, looked up): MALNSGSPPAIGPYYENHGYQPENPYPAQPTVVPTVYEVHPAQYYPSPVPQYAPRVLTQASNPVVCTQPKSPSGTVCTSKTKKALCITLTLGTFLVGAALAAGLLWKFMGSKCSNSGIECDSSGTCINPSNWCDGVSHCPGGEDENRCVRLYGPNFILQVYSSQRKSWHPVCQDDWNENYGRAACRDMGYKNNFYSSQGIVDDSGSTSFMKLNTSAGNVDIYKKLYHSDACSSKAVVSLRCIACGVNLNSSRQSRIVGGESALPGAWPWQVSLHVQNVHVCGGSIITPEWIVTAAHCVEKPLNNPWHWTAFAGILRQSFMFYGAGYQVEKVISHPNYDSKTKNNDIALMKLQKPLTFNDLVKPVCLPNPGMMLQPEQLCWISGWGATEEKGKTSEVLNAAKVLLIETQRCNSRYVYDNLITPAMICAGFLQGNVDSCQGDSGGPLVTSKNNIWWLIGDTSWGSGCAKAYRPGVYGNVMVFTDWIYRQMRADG
UniProt P49841, sequence (whole entry, looked up): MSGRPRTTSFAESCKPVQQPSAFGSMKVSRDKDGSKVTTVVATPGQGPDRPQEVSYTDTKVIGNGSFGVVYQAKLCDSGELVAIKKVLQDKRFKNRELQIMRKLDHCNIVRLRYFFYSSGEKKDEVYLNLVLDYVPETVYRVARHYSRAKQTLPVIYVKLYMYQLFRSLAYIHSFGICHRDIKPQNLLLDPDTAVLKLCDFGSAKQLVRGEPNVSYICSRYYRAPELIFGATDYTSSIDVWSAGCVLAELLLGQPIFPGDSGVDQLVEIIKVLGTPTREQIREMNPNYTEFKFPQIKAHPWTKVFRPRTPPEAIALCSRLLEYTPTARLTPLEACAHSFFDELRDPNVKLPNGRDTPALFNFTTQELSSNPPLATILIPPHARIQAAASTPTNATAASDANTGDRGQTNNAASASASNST
UniProt Q9NY57, sequence (whole entry, looked up): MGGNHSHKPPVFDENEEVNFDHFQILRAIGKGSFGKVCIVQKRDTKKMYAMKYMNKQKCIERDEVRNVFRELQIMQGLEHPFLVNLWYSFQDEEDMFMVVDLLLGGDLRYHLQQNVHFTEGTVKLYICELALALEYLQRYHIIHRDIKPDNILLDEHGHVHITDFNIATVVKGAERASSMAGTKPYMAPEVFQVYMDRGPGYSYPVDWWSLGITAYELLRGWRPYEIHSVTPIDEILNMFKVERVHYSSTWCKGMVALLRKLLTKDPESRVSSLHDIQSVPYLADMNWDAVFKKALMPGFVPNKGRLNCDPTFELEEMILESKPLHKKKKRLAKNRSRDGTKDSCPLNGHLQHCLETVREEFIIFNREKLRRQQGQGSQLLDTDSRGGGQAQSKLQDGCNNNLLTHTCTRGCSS
UniProt P49760, sequence (whole entry, looked up): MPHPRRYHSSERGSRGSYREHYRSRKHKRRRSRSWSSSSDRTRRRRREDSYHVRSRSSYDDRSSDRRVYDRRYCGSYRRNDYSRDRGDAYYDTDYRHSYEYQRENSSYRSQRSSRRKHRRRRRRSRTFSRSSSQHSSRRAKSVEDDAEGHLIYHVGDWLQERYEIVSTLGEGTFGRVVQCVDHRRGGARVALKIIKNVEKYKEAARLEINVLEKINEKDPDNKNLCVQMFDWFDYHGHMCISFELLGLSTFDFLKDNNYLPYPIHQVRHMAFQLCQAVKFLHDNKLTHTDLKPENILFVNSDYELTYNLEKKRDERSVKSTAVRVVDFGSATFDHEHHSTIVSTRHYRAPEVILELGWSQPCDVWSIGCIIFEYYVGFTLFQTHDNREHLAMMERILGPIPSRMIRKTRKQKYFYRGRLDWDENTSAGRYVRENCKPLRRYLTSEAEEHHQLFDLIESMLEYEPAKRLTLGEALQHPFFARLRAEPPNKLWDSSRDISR
UniProt P41144, sequence (whole entry, looked up): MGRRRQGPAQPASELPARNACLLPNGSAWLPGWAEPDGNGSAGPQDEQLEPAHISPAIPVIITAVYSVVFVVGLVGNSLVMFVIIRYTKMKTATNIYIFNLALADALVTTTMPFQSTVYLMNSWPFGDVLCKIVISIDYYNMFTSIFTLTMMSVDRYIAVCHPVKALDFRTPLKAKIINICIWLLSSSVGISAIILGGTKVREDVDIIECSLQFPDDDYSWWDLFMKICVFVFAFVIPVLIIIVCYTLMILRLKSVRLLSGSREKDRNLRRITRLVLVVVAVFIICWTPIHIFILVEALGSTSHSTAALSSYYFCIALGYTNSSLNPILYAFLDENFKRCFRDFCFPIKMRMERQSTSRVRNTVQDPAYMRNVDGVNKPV
UniProt P07711, sequence (whole entry, looked up): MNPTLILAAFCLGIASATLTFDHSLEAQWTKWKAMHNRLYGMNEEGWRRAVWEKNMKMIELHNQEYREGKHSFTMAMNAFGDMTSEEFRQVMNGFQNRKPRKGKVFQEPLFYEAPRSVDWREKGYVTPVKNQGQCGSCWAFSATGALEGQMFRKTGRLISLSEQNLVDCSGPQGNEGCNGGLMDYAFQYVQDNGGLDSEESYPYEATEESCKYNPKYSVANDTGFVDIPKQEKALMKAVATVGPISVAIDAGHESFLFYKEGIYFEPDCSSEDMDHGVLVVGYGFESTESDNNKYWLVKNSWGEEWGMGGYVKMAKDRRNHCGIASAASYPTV
UniProt P35367, sequence (whole entry, looked up): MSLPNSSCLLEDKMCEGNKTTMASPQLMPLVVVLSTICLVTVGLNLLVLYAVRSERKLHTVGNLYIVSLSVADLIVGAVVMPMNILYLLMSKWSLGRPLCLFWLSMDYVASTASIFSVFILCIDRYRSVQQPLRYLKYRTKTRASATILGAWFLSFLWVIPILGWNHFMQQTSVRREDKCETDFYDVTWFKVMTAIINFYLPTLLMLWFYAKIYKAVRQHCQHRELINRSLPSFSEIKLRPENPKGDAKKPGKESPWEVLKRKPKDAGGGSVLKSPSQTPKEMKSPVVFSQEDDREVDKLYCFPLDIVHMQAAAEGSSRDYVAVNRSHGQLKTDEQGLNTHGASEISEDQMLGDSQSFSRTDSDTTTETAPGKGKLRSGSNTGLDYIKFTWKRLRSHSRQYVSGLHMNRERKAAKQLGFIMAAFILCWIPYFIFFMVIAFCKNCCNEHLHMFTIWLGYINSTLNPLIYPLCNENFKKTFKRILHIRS
UniProt P00519, sequence (whole entry, unmodified, looked up): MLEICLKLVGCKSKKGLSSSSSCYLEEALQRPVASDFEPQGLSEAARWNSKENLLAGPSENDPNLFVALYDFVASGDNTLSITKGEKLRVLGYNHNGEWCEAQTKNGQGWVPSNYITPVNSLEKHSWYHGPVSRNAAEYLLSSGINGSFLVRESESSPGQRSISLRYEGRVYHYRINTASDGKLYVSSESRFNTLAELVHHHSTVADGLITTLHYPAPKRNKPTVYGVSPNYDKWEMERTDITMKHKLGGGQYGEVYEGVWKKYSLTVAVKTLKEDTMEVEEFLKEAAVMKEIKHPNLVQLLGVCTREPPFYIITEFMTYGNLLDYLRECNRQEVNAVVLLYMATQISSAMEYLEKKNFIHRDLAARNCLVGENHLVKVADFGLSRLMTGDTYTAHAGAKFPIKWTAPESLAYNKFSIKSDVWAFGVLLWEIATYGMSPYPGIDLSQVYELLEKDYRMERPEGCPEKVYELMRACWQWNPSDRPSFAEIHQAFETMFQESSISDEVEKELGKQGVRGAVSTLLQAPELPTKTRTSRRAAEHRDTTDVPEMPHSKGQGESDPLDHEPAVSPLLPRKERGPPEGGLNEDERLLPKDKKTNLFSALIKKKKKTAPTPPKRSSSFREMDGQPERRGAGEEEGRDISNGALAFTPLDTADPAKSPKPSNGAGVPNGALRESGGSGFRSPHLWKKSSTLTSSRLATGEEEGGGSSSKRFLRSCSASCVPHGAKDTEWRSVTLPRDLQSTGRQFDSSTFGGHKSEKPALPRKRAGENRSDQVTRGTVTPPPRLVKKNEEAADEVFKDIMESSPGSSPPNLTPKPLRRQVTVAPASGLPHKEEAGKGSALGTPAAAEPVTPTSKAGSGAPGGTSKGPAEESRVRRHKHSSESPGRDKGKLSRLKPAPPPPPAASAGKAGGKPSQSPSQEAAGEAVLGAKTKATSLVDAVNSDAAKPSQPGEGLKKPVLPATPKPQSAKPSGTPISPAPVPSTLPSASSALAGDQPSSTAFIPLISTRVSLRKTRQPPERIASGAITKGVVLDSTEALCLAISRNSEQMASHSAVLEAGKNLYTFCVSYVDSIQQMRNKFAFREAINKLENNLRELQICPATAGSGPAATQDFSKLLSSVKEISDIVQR
UniProt Q86YV6, sequence (whole entry, looked up): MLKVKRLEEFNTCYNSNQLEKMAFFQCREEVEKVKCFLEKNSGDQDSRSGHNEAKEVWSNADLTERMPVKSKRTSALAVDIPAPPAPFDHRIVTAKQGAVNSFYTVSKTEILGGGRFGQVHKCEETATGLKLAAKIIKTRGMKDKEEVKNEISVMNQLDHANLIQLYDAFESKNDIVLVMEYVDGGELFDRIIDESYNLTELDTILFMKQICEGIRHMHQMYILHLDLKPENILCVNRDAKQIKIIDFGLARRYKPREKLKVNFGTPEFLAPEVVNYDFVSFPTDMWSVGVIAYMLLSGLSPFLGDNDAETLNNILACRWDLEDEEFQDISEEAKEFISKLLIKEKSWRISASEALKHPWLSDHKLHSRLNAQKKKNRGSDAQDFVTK

`CC[C@@H](C)[C@H](NC(=O)[C@H](CCc1ccccc1)NC(=O)CCc1ccccc1)C(=O)N[C@@H](CCCNC(=N)N)C(=O)c1nc2ccccc2s1` — result for “activity vs control”: 84% (TMPRSS2; enzyme activity, inhibitor; 1 nM).
For `Cc1nn(C)cc1-c1nc2c(N3CCN(Cc4ccc(Cl)cc4)CC3)c(Cl)cnc2[nH]1`, the remaining binding was 100% (STK32B (Homo sapiens, UniProt Q9NY57); binding, competition with immobilised ligand; 1 µM).
For `c1cncc([C@@H]2CCCN2)c1`, the inhibition was 16% (HRH1 (Homo sapiens, UniProt P35367); ligand displacement; 50 µM).
`CC[C@@H](C)[C@@H]1CN([C@@H](CC2CCCCC2)CN2CCC[C@H]2CN2CCNC[C@@H]2CO)CCN1CCc1ccc(Cl)c(Cl)c1` has a remaining binding of 101% (OPRK1 (Cavia porcellus, UniProt P41144); ligand displacement, radioligand; 0.5 µM, pH 7.5).
With `CC(C)CC(=O)OC[C@H]1O[C@@](C#N)(c2ccc3c(N)ncnn23)[C@H](O)[C@@H]1O` the inhibition was 10% (LCK (Homo sapiens, UniProt P06239); enzyme activity, inhibitor; 20 µM).
`N=C(N)NCCCCC(=O)N[C@@H](CCC(N)=O)C(=O)N[C@@H](CC1CCCCC1)C(=O)N[C@@H](CCCNC(=N)N)C(=O)c1nc2ccccc2s1` — result for “activity vs control”: 67% (TMPRSS2; enzyme activity, inhibitor; 1 nM).
For `CC(=O)C(=O)c1ccccc1`, the remaining activity was 66.3% (Procathepsin L (CTSL, Homo sapiens, UniProt P07711); enzyme activity, inhibitor; 100 µM).
`Nc1ncc(-c2nc(N3CCOCC3)nc(N3CCOCC3)n2)c(C(F)F)n1` has a remaining binding of 79% (Tyrosine-protein kinase ABL1, phosphorylated (ABL1, Homo sapiens, UniProt P00519, E255K); binding, competition with immobilised ligand; 10 µM).
With `[2H]c1c([2H])c([C@]2([2H])CCCN2C(=O)C(C)(C)Oc2ccc3cn[nH]c3c2)c([2H])c([2H])c1C([2H])([2H])[2H]` the remaining binding was 66% (CLK2 (Homo sapiens, UniProt P49760); binding, competition with immobilised ligand; 1 µM).
`CC(=O)N[C@@H](CCC(N)=O)C(=O)N[C@@H](Cc1ccccc1)C(=O)N[C@@H](CCCNC(=N)N)C(=O)c1nc2ccccc2n1C` — result for “activity vs control”: 89% (TMPRSS2; enzyme activity, inhibitor; 1 nM).
`COc1ncccc1-c1cnn2ccc(N3CCN(C(=O)OC(C)C)CC3)nc12` gave a remaining binding of 7.6% (MYLK4 (Homo sapiens, UniProt Q86YV6); binding, competition with immobilised ligand; 1 µM).
`C#Cc1n[nH]c2c(-c3cn(C(C)c4ccccn4)c(=O)[nH]c3=O)cc(F)cc12` (stereo not drawn) has an inhibition of 3.7% (GSK3B (Homo sapiens, UniProt P49841); enzyme activity, inhibitor; 1 µM).

A few entries again:
`CC[C@@H](C)[C@H](NC(=O)[C@H](CCc1ccccc1)NC(=O)CCc1ccccc1)C(=O)N[C@@H](CCCNC(=N)N)C(=O)c1nc2ccccc2s1` — result for “activity vs control”: 84% (TMPRSS2; enzyme activity, inhibitor; 1 nM).
